Measurements from different studies.
Parts stem from different laboratories: compare values within a part only.

Study 1
Target: PABPC1L2, full length, GST fusion (mouse, UniProt A0ABA7IW68)
Technique: RNAcompete
Molecule type: RNA
Medium: in vitro
Tested at: 20 nM
Notes: 7-mer, probes averaged, single round
Reference: mean of 7-mers
Reading: higher = stronger binding
| Sequence | 7-mer Z-score |
| --- | --- |
| CAUAAAU | 2.66 |
| ACUAGUC | -0.325 |
| ACGCUCC | -0.11 |
| AUGGGCA | 0.291 |
| CGCAGGA | 0.225 |

Study 2
Target: RING finger protein unkempt homolog, zinc fingers 1-6, GST-SBP tag (UNK, Homo sapiens, UniProt Q9C0B0, residues 30-357)
Technique: RNA Bind-n-Seq
Molecule type: RNA
Medium: in vitro
Tested at: not given
Notes: RNA with constant flanks, human and mouse sites, ends assumed
Reference: input RNA pool
Reading: higher = stronger binding
Target sequence (chain): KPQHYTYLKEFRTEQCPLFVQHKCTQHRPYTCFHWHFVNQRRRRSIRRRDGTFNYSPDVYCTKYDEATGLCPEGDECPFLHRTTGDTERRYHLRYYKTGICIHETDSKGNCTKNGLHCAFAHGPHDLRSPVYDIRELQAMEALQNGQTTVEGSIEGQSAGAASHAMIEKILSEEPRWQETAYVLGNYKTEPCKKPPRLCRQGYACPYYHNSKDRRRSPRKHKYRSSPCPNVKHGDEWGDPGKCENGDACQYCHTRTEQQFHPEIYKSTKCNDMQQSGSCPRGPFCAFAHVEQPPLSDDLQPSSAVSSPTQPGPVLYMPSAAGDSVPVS
| Sequence | bound/input enrichment |
| --- | --- |
| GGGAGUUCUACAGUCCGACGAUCUUUCAUUUAAGGACUUGUGCUGCUAAGUUAAGGCCAUUGACAGCCUCCCAGACUGUUAAGACAUUUUCACAAAACAAACCAGCAGCAAUUAGGACGUUUCAACAGAUUCGGUGCUAUUCUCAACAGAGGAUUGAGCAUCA | 0.804 ratio |
| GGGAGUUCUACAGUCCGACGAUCAAUAUAAUGCAGGUUUUUAUAUACUGUCUGGAACAGUUGAGCACCAAGCCUGAUGCAGAUAUAGAUACUACACAUCUCUCUGUUGAUGUUUCUUCCCCUGACUUGUUUGGAAGUAUCCAUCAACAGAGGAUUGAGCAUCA | 0.0743 ratio |
| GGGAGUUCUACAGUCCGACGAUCUCCCCAGCCCCACCCGCCAAAAUGAACAGCUCGGACGAGGAGAAGCAGCUGCAGCUCAUCACCAGCUUGAAGGAGCAAGCCAUUGGCGAAUAUGAAGACCUUCGAGCAGAGAACCAGAAACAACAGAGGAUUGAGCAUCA | 0.267 ratio |
| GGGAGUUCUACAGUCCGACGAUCCGUGAGAAGAUAGAGGCAGAACUGCAGGACAUCUGCAAUGAUGUUCUGGAGCUGUUGGACAAAUAUCUUAUUCCCAAUGCUACACAACCAGAAAGUAAGGUGUUCUACUUGAAAAUGAAACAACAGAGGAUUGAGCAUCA | 0.144 ratio |
| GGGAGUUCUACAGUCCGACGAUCUAUCUUUAUAAGUACCUGUGGAGACUGAUGGUGAAGGACAUGUCCAGUAUAUACAGCAUGUACAGCACACUCCUGGCUCAUAAAAAACUACAUAUAAGAAAUUUUGCUGCUGAAAGUUUUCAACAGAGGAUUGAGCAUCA | 0.525 ratio |

Study 3
Target: RNA binding protein fox-1 homolog 2, RRM domain, GST-SBP tag (RBFOX2, Homo sapiens, UniProt O43251-10, residues 100-194)
Technique: RNA Bind-n-Seq
Molecule type: RNA
Medium: in vitro
Tested at: 365 nM
Notes: natural RNA segment, single round, ends assumed
Reference: no-protein control
Reading: higher = stronger binding
Residues (chain): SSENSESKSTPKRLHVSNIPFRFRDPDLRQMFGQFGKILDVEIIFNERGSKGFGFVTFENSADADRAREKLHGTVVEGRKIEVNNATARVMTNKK
| Sequence | RBNS enrichment (R) |
| --- | --- |
| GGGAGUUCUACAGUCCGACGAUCCAGUGUUACUUGCAGGUACUUUGGUUAAUGUUGAUUUAAAUUUUCAUGAAUGUGCUGGUGAACACUGUGACCAGGCUUUUGUAGAUGGCGAUGUGUUAUAGACGGUGCUCUGGAAUUCUCGGGUGCCAA | 2.23 |
| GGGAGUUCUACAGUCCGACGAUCUGGCAGAGAGGUCCUGUGAGUCAUUUGAUGGACGAGUGCCUUUGACUGUGCUAGAUCUUCACUUCGGUGGCGAGUUAUAUCCUACAGCCCUGACACAUCAGGCAAUGAAUUGGAAUUCUCGGGUGCCAA | 0.301 |
| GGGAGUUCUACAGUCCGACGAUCGGGGAAAGAAGAGAGGAAGGUGAGCUAUAGCUUAACUCCUCCAGAGUGAGGAGAGGCUGAGCAUUCUACUACAGGACAGGACCUCGCCCCAAGCAAGCCAGUGAGCAGCCUGGAAUUCUCGGGUGCCAA | 0.736 |
| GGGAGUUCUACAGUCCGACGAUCCCAGUCUUCCCCGUGUGCCGGCUGCGAGCCUCCUUGCUCCUGCAUCUCGACCAUUCCGUGUUGGCUGUGUCGCCUGACCUGCGUACCUGUGGAGGAUUCGGAACAAGUCAUGGAAUUCUCGGGUGCCAA | 0.604 |
| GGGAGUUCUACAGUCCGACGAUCAAGAAUUUCUGAACUAACACUUGAAAUCACAUUUUAUAAAGAUUGUUGGUACUCAGAGUUGUAUUUGCAGCAGAAAAUGCAGAAUAACCCAGAAAUGGAGCCCGGAGCCCUGGAAUUCUCGGGUGCCAA | 0.286 |

Mixed results
| Substance | target | assay | system | conditions | how to read | endpoint | value |
| --- | --- | --- | --- | --- | --- | --- | --- |
| PhoQ, residues 284 288 289 292 302 303 SASVAL | PhoP, residues 12 14 15 18 19 SQCLL (Escherichia coli, UniProt P23836) | Sort-seq, refers to: YFP reporter | E. coli | PhoQ-PhoP variant library, together with: 10 µM Mg2+ | reference: high Mg2+ state, higher = stronger signaling | fold induction | 20 |

Some of these lines once more (study 2):
| Sequence | bound/input enrichment |
| --- | --- |
| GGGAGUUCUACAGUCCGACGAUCUCCCCAGCCCCACCCGCCAAAAUGAACAGCUCGGACGAGGAGAAGCAGCUGCAGCUCAUCACCAGCUUGAAGGAGCAAGCCAUUGGCGAAUAUGAAGACCUUCGAGCAGAGAACCAGAAACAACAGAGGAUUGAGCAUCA | 0.267 ratio |
| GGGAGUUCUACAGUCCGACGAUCCGUGAGAAGAUAGAGGCAGAACUGCAGGACAUCUGCAAUGAUGUUCUGGAGCUGUUGGACAAAUAUCUUAUUCCCAAUGCUACACAACCAGAAAGUAAGGUGUUCUACUUGAAAAUGAAACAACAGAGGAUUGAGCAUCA | 0.144 ratio |
